Measured values gathered from unrelated publications.
Protocols differ between the studies behind these lines. Numbers after ± are the reported error.

| SMILES | cell line | effect on | technique | time | temperature | notes | CC50 |
| --- | --- | --- | --- | --- | --- | --- | --- |
| CCCCCCCC1=CC(=O)c2ccccc2S1(=O)=O | U-937 | – | MTT | 72 h | – | – | 460 µM |
| Oc1ccc(CCCCCCCCC(O)c2c(O)cccc2O)cc1O (stereo not drawn) | Vero E6/TMPRSS2 | – | MTT | – | – | – | > 40 µM |
| COc1cccc2[nH]c(C(=O)N[C@@H](CC(C)C)C(=O)N[C@@H](C[C@@H]3CCNC3=O)C(=O)c3nc4ccccc4s3)cc12 | VeroE6 | – | WST-8 | 3 (unit not given) | – | – | > 100 µM |
| N=C(N)NCCC[C@H]1NC(=O)[C@H](CCCN)NC(=O)[C@@H](Cc2c[nH]cn2)NC(=O)[C@H](Cc2ccc(O)cc2)NC(=O)[C@@H](Cc2ccc(O)cc2)NC(=O)[C@H](Cc2ccccc2)NC(=O)[C@@H](Cc2c[nH]c3ccccc23)NC(=O)[C@H](CO)NC1=O | NCI cell lines | cytotoxicity | – | – | – | – | 7.2 µM |
| OC[C@H]1[C@@H](O)[C@@H](O)CN1Cc1ccccc1 | MRC-5 | – | MTS | 72 h | – | – | > 200 µM |
| O=c1cc[s+]([O-])c2ccccc12 (racemic) | U-937 | – | MTT | 72 h | – | – | 966 µM |
| CC(C)C[C@@H]1NC(=O)[C@@H](Cc2c[nH]c3ccccc23)NC(=O)[C@H](CCCCN)NC(=O)[C@@H](Cc2c[nH]cn2)NC(=O)[C@H](CO)NC(=O)[C@@H](Cc2c[nH]cn2)NC(=O)[C@H](CCCCN)NC(=O)[C@@H](Cc2c[nH]c3ccccc23)NC1=O | NCI cell lines | cytotoxicity | – | – | – | – | 7.8 µM |
| CC(C)C[C@H](NC(=O)c1cc2c(F)ccc(F)c2[nH]1)C(=O)N[C@@H](C[C@@H]1CCNC1=O)C(=O)c1nc2c(F)cccc2s1 | VeroE6 | – | WST-8 | 3 (unit not given) | – | – | > 100 µM |
| O=c1cc[s+]([O-])c2ccc(Cl)cc12 (racemic) | U-937 | – | MTT | 72 h | – | – | 81.9 µM |
| CC[C@H](C)[C@H](NC(=O)[C@H](C)NC(=O)[C@H](CC(N)=O)NC(=O)CNC(=O)[C@H](CC(C)C)NC(=O)[C@H](CC(N)=O)NC(=O)[C@@H](NC(=O)CNC(=O)[C@@H](NC(C)=O)C(C)C)[C@@H](C)O)C(=O)N[C@@H](C)C(=O)N[C@@H](CCCCN)C(=O)N[C@@H](CC(C)C)C(=O)N[C@@H](CCC(=O)O)C(=O)N[C@@H](CC(=O)O)C(=O)N[C@@H](C)C(=O)N[C@@H](CCCCN)C(=O)N[C@@H](CCC(=O)O)C(=O)N[C@@H](CC(C)C)C(=O)N[C@@H](CC(C)C)C(=O)N[C@@H](CCC(=O)O)C(=O)N[C@@H](CO)C(=O)N[C@@H](CO)C(=O)N[C@@H](CC(=O)O)C(=O)N[C@@H](CCC(N)=O)C(=O)N[C@H](C(=O)N[C@@H](CC(C)C)C(=O)N[C@@H](CCCNC(=N)N)C(=O)N[C@@H](CO)C(N)=O)[C@@H](C)CC | B95a | – | MTT | 8 days | 37 °C | – | > 10 µM |
| CC(C)C[C@H](NC(=O)OCc1ccccc1)C(=O)N[C@@H](CC1CCNC1=O)C(O)S(=O)(=O)O (stereo partly drawn) | MRC-5 | – | – | 5 days | – | – | > 50 µM |
| C=C1C(=O)OC2CC(C)C3C=CC(=O)C3(C)C(O[Si](C)(C)C)C12 (stereo not drawn) | BALB/c mouse splenocytes | – | propidium iodide flow cytometry | 48 h | – | 10% fetal calf serum | 0.4 µM |
| C1=[N+]2CCCC[N+]3=Cc4ccc5[n]4[Au-]23[n]2c1ccc2-c1nc2ccccc2nc1-5.F[P-](F)(F)(F)(F)F | NCI60 leukemia cell lines | – | – | – | – | mean of cell lines | > 100 µM |
| COc1ccc(F)c2[nH]c(C(=O)N[C@@H](CC(C)C)C(=O)N[C@@H](C[C@@H]3CCNC3=O)C(=O)c3nc4ccccc4s3)cc12 | VeroE6 | – | WST-8 | 3 (unit not given) | – | – | > 100 µM |
| CC[C@H](C)[C@H](NC(=O)[C@H](CCC(=O)O)NC(=O)[C@H](CCC(=O)O)NC(=O)[C@H](CO)NC(=O)[C@H](CCCCN)NC(=O)[C@H](CCCCN)NC(=O)[C@H](CC(C)C)NC(=O)[C@H](CC(C)C)NC(=O)[C@H](CCC(=O)O)NC(=O)[C@H](CCC(=O)O)NC(=O)[C@H](C)NC(=O)[C@H](CCCCN)NC(=O)[C@H](CCCCN)NC(=O)[C@H](CC(C)C)NC(=O)[C@H](CCCCN)NC(=O)[C@H](CCC(=O)O)NC(=O)[C@H](CCC(=O)O)NC(=O)[C@H](C)NC(=O)[C@H](CCCCN)NC(=O)[C@H](CCCCN)NC(=O)[C@H](CC(C)C)NC(=O)[C@H](CC(N)=O)NC(=O)[C@H](CCC(=O)O)NC(=O)[C@H](CCC(=O)O)NC(=O)[C@@H](NC(=O)[C@H](CC(=O)O)NC(=O)[C@H](CC(C)C)NC(C)=O)C(C)C)C(=O)N[C@@H](CC(C)C)C(=O)N[C@@H](CCCCN)C(=O)N[C@@H](CCCCN)C(N)=O | B95a | – | MTT | 8 days | 37 °C | – | > 10 µM |
| Cc1ccc(NCCN(C)CCNc2ccnc3cc(Cl)ccc23)c2c(=O)c3ccccc3sc12 | Vero E6 uninfected | cell viability | CellTiter-Glo | 72 h | – | – | > 30 µM |
| C=C1C(=O)O[C@@H]2[C@H]1CC[C@H](C)[C@@]1(O[Si](C)(C)C)C=CC(=O)[C@@]21C | BALB/c mouse splenocytes | – | propidium iodide flow cytometry | 48 h | – | 10% fetal calf serum | 1.5 µM |
| CCC[C@H](NC(=O)[C@H](CC(C)C)NC(=O)OCc1ccccc1)C(=O)C(=O)NCc1ccccn1 | MRC-5 | – | – | 5 days | – | – | > 50 µM |
| O=C(Oc1ccc(CCCCCCCCC(=O)c2c(OC(=O)c3ccccc3)cccc2OC(=O)c2ccccc2)cc1OC(=O)c1ccccc1)c1ccccc1 | Vero E6/TMPRSS2 | – | MTT | – | – | – | > 40 µM |
| CCN(CC)CCCC(C)Nc1cc[n+]([Ru-]2[NH2+]CC[NH2+]2)c2cc(Cl)ccc12.Cc1ccc(C(C)C)cc1.F[P-](F)(F)(F)(F)F.F[P-](F)(F)(F)(F)F (stereo not drawn) | SUP-T1 | cytotoxicity | PI flow cytometry | 20 h | – | – | 75 µM |
| CC[C@H](C)[C@H](NC(=O)[C@H](C)NC(=O)[C@H](CCC(=O)O)NC(C)=O)C(=O)N[C@H](C(=O)N[C@@H](CCCNC(=N)N)C(=O)NC1CCCC=CCCCC(C(=O)N[C@@H](CC(C)C)C(=O)N[C@@H](Cc2ccccc2)C(=O)N[C@H](C(=O)N[C@@H](Cc2c[nH]cn2)C(=O)N[C@@H](Cc2ccccc2)C(=O)N[C@@H](CCCNC(=N)N)C(=O)N[C@H](C(=O)NCC(N)=O)[C@@H](C)CC)[C@@H](C)CC)NC(=O)[C@H](CCC(N)=O)NC(=O)[C@H](CCC(N)=O)NC(=O)[C@H](CC(C)C)NC1=O)[C@@H](C)CC (stereo partly drawn) | MT4 (mock-infected) | – | MTT | – | – | – | > 10 µM |
| C=C1C(=O)OC2C1CCC(C)=C1C(OC(=O)Nc3ccc(C(F)(F)F)cc3)CC(C)(O)C12 (stereo not drawn) | M9-ENL1 | cell viability | MTT | 24 h | – | – | 4.3 ± 1 µM |
| CC[C@H](C)[C@@H]1NC(=O)C(NC(=O)[C@H](C)NC(=O)[C@H](CCC(=O)O)NC(C)=O)CCCC=CCCCC(C(=O)N[C@@H](CCC(N)=O)C(=O)N[C@@H](CCC(N)=O)C(=O)N[C@@H](CC(C)C)C(=O)N[C@@H](CC(C)C)C(=O)N[C@@H](Cc2ccccc2)C(=O)N[C@H](C(=O)N[C@@H](Cc2c[nH]cn2)C(=O)N[C@@H](Cc2ccccc2)C(=O)N[C@@H](CCCNC(=N)N)C(=O)N[C@H](C(=O)NCC(N)=O)[C@@H](C)CC)[C@@H](C)CC)NC(=O)[C@H]([C@@H](C)CC)NC(=O)[C@H](CCCNC(=N)N)NC1=O (stereo partly drawn) | MT4 (mock-infected) | – | MTT | – | – | – | > 10 µM |
| CC(=O)Oc1ccc(CCCCCCCCC(=O)c2c(OC(C)=O)cccc2OC(C)=O)cc1OC(C)=O | Vero E6/TMPRSS2 | – | MTT | – | – | – | 16 µM |

Repeated from above:
| SMILES | cell line | effect on | technique | time | temperature | notes | CC50 |
| --- | --- | --- | --- | --- | --- | --- | --- |
| CC(=O)Oc1ccc(CCCCCCCCC(=O)c2c(OC(C)=O)cccc2OC(C)=O)cc1OC(C)=O | Vero E6/TMPRSS2 | – | MTT | – | – | – | 16 µM |
| CCN(CC)CCCC(C)Nc1cc[n+]([Ru-]2[NH2+]CC[NH2+]2)c2cc(Cl)ccc12.Cc1ccc(C(C)C)cc1.F[P-](F)(F)(F)(F)F.F[P-](F)(F)(F)(F)F (stereo not drawn) | SUP-T1 | cytotoxicity | PI flow cytometry | 20 h | – | – | 75 µM |
| CCC[C@H](NC(=O)[C@H](CC(C)C)NC(=O)OCc1ccccc1)C(=O)C(=O)NCc1ccccn1 | MRC-5 | – | – | 5 days | – | – | > 50 µM |
